{"data": "Assay results pooled from the literature", "note": "Protocols differ between the studies behind these lines."}
{"SMILES": "C[N+]1=C2C(c3ccc([N+](=O)[O-])cc3)=[N+]([O-])c3ccccc3N2CCC1", "organism": "Prevotella intermedia/nigrescens", "system": "ATCC 25611", "MIC": "2 µg/mL"}
{"SMILES": "C[C@@H](c1ccn(Cc2ccc(I)cc2)n1)[C@](O)(Cn1cnnn1)c1ccc(F)cc1F", "organism": "Candidozyma auris", "test": "microbial growth", "system": "887", "conditions": "24 h, drug-resistant strain, clinical isolate", "MIC": "2 µg/mL"}
{"SMILES": "CC[C@H](C)[C@H](NC(=O)CNC(=O)[C@H](CCCCN)NC(=O)[C@H](C)NC(=O)[C@H](CCC(=O)O)NC(=O)[C@H](Cc1ccccc1)NC(=O)[C@H](CO)NC(=O)[C@H](CC(C)C)NC(=O)[C@@H](NC(=O)[C@H](CC(=O)O)NC(=O)[C@H](C)NC(=O)[C@@H](NC(=O)[C@@H](N)C(C)C)[C@@H](C)O)C(C)C)C(=O)N[C@@H](C)C(=O)N[C@H](C(=O)N[C@@H](CC(N)=O)C(=O)N[C@@H](Cc1c[nH]cn1)C(=O)N[C@@H](CO)C(=O)N[C@@H](C)C(=O)N[C@H]1CSSC[C@@H]2NC(=O)[C@H](C(C)C)NC(=O)CNC(=O)[C@H](CC(N)=O)NC(=O)[C@H](CCC(N)=O)NC(=O)[C@H](C)NC(=O)[C@H](CO)NC(=O)CNC(=O)CNC(=O)[C@H](CCCCN)NC(=O)[C@H](CCCCN)NC(=O)[C@H](CCCNC(=N)N)NC(=O)[C@H](CC(C)C)NC(=O)[C@H](C)NC(=O)[C@H]([C@@H](C)CC)NC(=O)[C@H](CSSC[C@@H](C(=O)N[C@@H](CCCNC(=N)N)C(=O)N[C@@H](CC(N)=O)C(=O)O)NC(=O)[C@H](C(C)C)NC2=O)NC(=O)[C@H](Cc2c[nH]cn2)NC(=O)[C@H](CC(C)C)NC(=O)[C@H](C)NC1=O)C(C)C", "organism": "Salmonella typhimurium", "test": "broth microdilution", "system": "KCTC 1926", "conditions": "16 h, 37 °C", "MIC": "> 100 µM"}
{"SMILES": "COc1ccccc1NC(=O)OC1C(C)C(OC)C=COC2(C)Oc3c(C)c(O)c4c(c3C2=O)C2=NC3(CCN(CC(C)C)CC3)NC2=C(NC(=O)C(C)=CC=CC(C)C(O)C(C)C(O)C1C)C4=O (stereo not drawn)", "organism": "Mycobacteroides abscessus", "system": "ATCC 19977 arr knockout", "MIC": "0.015 µM"}
{"SMILES": "C=C(NC(=O)C(=C)NC(=O)c1csc(C2=NC3c4csc(n4)C4NC(=O)c5csc(n5)C(C(C)(O)C(C)O)NC(=O)C5CSC(=N5)C(=CC)NC(=O)C(C(C)O)NC(=O)c5csc(n5)C3(CC2)NC(=O)C(C)NC(=O)C(=C)NC(=O)CNC(=O)C(C(C)CC)NC2C=Cc3c(C(C)O)cc(nc3C2O)C(=O)OC4C)n1)C(N)=O (stereo not drawn)", "organism": "Bacillus sp.", "test": "broth microdilution", "system": "ATCC 27859", "conditions": "18 h, 37 °C", "MIC": "0.19 µg/mL"}
{"SMILES": "CC[C@H](C)[C@H](NC(=O)[C@H](CCCN)NC(=O)[C@H](CC(N)=O)NC(=O)[C@H](CC(C)C)NC(=O)[C@H](Cc1ccccc1)NC(=O)[C@H](CCCN)NC(=O)[C@H](CCCCNC(=N)N)NC(=O)[C@H](CC(C)C)NC(=O)[C@H](CC(C)C)NC(=O)[C@H](CCCN)NC(=O)[C@H](CCCCNC(=N)N)NC(=O)[C@H](CC(C)C)NC(=O)CNC(C)=O)C(=O)N[C@@H](CCCN)C(=O)N[C@@H](CCCCNC(=N)N)C(N)=O", "organism": "Enterobacter aerogenes", "test": "broth microdilution", "system": "multidrug-resistant", "MIC": "12.5 µM"}
{"SMILES": "CN[C@@H]1[C@H](O)[C@H](NC)[C@H]2O[C@]3(O)[C@H](O[C@@H]2[C@H]1O)O[C@H](C)C[C@@]3(O)CNCc1ccc(OC(F)(F)F)cc1", "organism": "Streptococcus pneumoniae", "system": "R6 drug sensitive", "MIC": "3 µg/mL"}
{"SMILES": "[O-][N+]1=C(c2ccccc2)C2=NCCCN2c2ncccc21", "organism": "Prevotella intermedia/nigrescens", "system": "ATCC 25611", "MIC": "0.125 µg/mL"}
{"SMILES": "OB(O)c1ccc(OCc2ccccc2)nc1F", "organism": "Citrobacter freundii", "test": "bacterial growth", "system": "AmpC-overproducing clinical isolate", "conditions": "cefotaxime alone", "MIC": "4 µg/mL"}
{"SMILES": "CC[C@H](C)[C@H](NC(=O)[C@H](CCCCN)NC(=O)[C@H](CC(N)=O)NC(=O)[C@H](Cc1c[nH]c2ccccc12)NC(=O)[C@H](Cc1ccccc1)NC(=O)[C@H](CCCCN)NC(=O)[C@H](CCCCNC(=N)N)NC(=O)[C@H](CC(C)C)NC(=O)[C@H](Cc1c[nH]c2ccccc12)NC(=O)[C@H](CCCCN)NC(=O)[C@H](CCCCNC(=N)N)NC(=O)[C@H](CC(C)C)NC(=O)CNC(C)=O)C(=O)N[C@@H](CCCCN)C(=O)N[C@@H](CCCCNC(=N)N)C(N)=O", "organism": "Citrobacter freundii", "test": "bacterial growth, broth microdilution", "system": "multidrug-resistant", "MIC": "3.12 µM"}
{"SMILES": "CC(C)c1ccc(Cn2ccc([C@H](C)[C@](O)(Cn3cnnn3)c3ccc(F)cc3F)n2)cc1", "organism": "Candidozyma auris", "test": "microbial growth", "system": "887", "conditions": "24 h, drug-resistant strain, clinical isolate", "MIC": "4 µg/mL"}
{"SMILES": "CN(Cc1cc(C2CC2)on1)C(=O)c1cccc(-c2ccc3c(c2)CCO3)c1", "organism": "Cryptococcus neoformans", "system": "sgf29∆ mutant", "MIC": "> 64 µg/mL"}
{"SMILES": "CC[C@H](C)[C@H](NC(=O)[C@H](C)NC(=O)[C@@H](NC(=O)[C@H](CC(=O)O)NC(=O)[C@H](CCCCN)NC(=O)[C@H](CO)NC(=O)[C@@H](NC(=O)[C@H](CC(N)=O)NC(=O)[C@H](C)NC(=O)[C@@H](NC(=O)[C@H](CCC(=O)O)NC(=O)[C@H](CCCCN)NC(=O)[C@@H](NC(=O)[C@@H](NC(=O)[C@H](Cc1c[nH]cn1)NC(=O)[C@H](CCCCN)NC(=O)[C@@H](NC(=O)[C@H](CCCCN)NC(=O)[C@H](CCCCN)NC(=O)[C@@H](NC(=O)[C@H](CC(C)C)NC(=O)[C@H](CCCCN)NC(=O)[C@H](CC(N)=O)NC(=O)[C@H](Cc1ccccc1)NC(=O)[C@H](CCCNC(=N)N)NC(=O)[C@H](CCCCN)NC(=O)[C@H](CCCNC(=N)N)NC(=O)[C@H](Cc1ccccc1)NC(=O)CN)C(C)C)C(C)C)[C@@H](C)O)[C@@H](C)CC)[C@@H](C)O)C(C)C)C(C)C)C(=O)N[C@H](C(=O)N[C@@H](C)C(=O)NCC(=O)N[C@@H](CO)C(=O)NCC(=O)N[C@H](C(=O)N[C@@H](C)C(=O)N[C@H](C(=O)NCC(=O)N[C@@H](C)C(=O)N[C@@H](C)C(=O)N[C@@H](CCSC)C(N)=O)C(C)C)C(C)C)C(C)C", "organism": "Gram-positive bacteria, Candida albicans", "system": "reference strains, CAMHB", "MIC": "≥ 1020 µg/mL"}
{"SMILES": "CC[C@@H](C)[C@@H](NC(=O)[C@@H](C)NC(=O)[C@@H](CCCCN)NC(=O)[C@@H](CC(C)C)NC(=O)[C@@H](C)NC(=O)[C@H](NC(=O)[C@@H](Cc1c[nH]cn1)NC(=O)[C@@H](CC(C)C)NC(=O)[C@H](NC(=O)[C@H](NC(=O)[C@@H](CCCCN)NC(=O)[C@@H](CCCCN)NC(=O)[C@@H](C)NC(=O)[C@@H](CO)NC(=O)[C@@H](CCCCN)NC(=O)[C@@H](Cc1ccccc1)NC(=O)[C@H](NC(=O)[C@@H](CCCCN)NC(=O)[C@@H](CC(C)C)NC(=O)[C@@H](Cc1ccccc1)NC(=O)[C@@H](CO)NC(=O)[C@@H](CCCCN)NC(=O)[C@@H](Cc1c[nH]c2ccccc12)NC(=O)[C@@H](CCCCN)NC(C)=O)[C@H](C)O)[C@H](C)O)C(C)C)[C@H](C)O)C(=O)N[C@H](CO)C(=O)N[C@H](CO)C(N)=O", "organism": "Acinetobacter baumannii", "system": "689, Mueller-Hinton broth", "conditions": "24 h, 37 °C", "MIC": "0.8 µM"}
{"SMILES": "CC(C)C[C@@H]1NC(=O)[C@H](C)NC(=O)[C@H](NC(=O)[C@H](CO)NC(=O)[C@@H](CCCCN)NC(=O)[C@@H](C)NC(=O)[C@@H](N)Cc2ccccc2)[C@H](C(N)=O)OC(=O)[C@H](CC(C)C)NC1=O", "organism": "Bacillus subtilis Staphylococcus epidermidis", "system": "ATCC 14990", "conditions": "tested as TFA salt", "MIC": "16 µg/mL"}
{"SMILES": "CN[C@@H]1[C@H](O)[C@H](NC)[C@H]2O[C@]3(O)[C@H](O[C@@H]2[C@H]1O)O[C@H](C)C[C@@]3(O)CNCc1ccc(F)cc1", "organism": "Streptococcus pneumoniae", "system": "BAA-1407 mefE ermB resistant", "MIC": "6 µg/mL"}
{"SMILES": "[O-][N+]1=C(c2ccccc2)C2=NCCN2c2ccccc21", "organism": "Clostridioides difficile", "test": "microbial growth", "system": "ATCC43255", "MIC": "1 µg/mL"}
{"SMILES": "CO[C@H]1CC(O)=C2C(=O)c3c(cc(C)c(-c4c(C)cc5c(c4O)C(=O)C4=C(O)C[C@H](OC)[C@@H](O)[C@]4(C)O5)c3O)O[C@@]2(C)[C@@H]1O", "organism": "Colletotrichum acutatum", "test": "microbial growth", "system": "BCC", "MIC": "5.1 µM"}
{"note": "Repeated from above:"}
{"SMILES": "CN(Cc1cc(C2CC2)on1)C(=O)c1cccc(-c2ccc3c(c2)CCO3)c1", "organism": "Cryptococcus neoformans", "system": "sgf29∆ mutant", "MIC": "> 64 µg/mL"}
